Assay results gathered from unrelated publications.
Lines come from different studies, so protocols differ. Values joined by “and” are separate records of one study, mostly repeats; a detail may differ. Numbers after ± are the reported error.
MAPK11: Mitogen-activated protein kinase 11 (MAPK11, Homo sapiens, UniProt Q15759)
Chain of UniProt D0VWV4 (whole entry, looked up): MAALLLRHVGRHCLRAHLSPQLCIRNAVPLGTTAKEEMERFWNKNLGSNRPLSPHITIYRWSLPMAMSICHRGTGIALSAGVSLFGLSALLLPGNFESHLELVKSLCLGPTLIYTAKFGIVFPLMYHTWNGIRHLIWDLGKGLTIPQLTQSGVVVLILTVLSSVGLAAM
Chain of UniProt P06276 (whole entry, looked up): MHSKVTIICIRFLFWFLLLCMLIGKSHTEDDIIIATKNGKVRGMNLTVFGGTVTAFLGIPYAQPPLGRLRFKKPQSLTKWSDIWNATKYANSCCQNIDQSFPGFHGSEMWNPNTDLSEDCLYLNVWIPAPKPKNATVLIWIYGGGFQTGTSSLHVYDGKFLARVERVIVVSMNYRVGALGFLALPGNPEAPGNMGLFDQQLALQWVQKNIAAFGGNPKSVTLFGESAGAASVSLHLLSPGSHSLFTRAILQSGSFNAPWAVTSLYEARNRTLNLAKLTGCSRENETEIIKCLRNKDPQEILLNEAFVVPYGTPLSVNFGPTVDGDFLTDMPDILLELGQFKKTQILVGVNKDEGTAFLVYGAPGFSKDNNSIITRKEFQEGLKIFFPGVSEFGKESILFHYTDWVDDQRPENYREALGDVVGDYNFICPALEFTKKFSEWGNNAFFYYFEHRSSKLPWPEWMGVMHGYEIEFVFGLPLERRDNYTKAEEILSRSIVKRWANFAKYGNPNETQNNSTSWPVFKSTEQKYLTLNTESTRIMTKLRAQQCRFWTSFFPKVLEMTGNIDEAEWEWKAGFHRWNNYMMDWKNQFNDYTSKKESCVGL
Chain of UniProt Q007T0 (whole entry, looked up): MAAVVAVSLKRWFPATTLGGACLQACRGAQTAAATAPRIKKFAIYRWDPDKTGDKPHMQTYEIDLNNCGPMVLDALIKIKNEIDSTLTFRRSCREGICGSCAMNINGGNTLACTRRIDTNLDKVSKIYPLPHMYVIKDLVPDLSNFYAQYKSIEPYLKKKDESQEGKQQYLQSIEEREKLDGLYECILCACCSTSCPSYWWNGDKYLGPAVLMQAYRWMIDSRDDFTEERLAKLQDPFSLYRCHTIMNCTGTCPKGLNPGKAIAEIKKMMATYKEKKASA
Chain of UniProt A5GZW8 (whole entry, looked up): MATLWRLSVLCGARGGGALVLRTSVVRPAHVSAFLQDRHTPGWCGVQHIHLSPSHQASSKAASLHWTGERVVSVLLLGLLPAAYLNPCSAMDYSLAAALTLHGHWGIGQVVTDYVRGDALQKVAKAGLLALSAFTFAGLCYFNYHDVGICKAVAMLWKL
Chain of UniProt P00519 (whole entry, unmodified, looked up): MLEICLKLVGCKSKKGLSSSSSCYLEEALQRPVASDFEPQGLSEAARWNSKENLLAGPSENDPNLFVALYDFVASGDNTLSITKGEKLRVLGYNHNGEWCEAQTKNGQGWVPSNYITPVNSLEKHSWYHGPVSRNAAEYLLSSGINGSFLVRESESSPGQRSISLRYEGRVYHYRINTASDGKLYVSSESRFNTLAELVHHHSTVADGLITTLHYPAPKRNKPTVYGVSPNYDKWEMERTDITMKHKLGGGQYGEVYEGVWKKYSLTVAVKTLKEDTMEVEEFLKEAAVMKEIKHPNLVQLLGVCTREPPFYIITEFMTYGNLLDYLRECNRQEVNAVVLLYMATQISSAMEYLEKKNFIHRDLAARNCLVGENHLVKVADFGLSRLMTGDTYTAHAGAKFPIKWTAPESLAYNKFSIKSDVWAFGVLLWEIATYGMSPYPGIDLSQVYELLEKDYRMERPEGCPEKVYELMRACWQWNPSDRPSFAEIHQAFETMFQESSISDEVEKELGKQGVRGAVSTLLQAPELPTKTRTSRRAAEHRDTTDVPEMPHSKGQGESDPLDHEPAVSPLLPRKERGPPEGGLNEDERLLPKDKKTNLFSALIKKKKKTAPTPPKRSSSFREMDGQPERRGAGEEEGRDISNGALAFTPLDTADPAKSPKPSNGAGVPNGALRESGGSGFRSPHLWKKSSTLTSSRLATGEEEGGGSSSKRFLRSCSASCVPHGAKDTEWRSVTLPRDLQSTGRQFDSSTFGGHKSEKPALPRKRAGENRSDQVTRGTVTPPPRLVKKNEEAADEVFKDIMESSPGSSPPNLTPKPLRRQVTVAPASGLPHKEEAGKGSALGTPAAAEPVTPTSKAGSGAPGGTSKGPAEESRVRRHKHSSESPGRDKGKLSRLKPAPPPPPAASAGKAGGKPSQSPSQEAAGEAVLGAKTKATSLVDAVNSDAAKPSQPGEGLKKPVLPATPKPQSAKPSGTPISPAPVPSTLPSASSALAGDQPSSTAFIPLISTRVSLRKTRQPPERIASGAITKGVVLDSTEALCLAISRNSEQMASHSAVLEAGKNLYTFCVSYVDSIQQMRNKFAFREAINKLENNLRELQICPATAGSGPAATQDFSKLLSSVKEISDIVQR
Chain of UniProt Q15759 (whole entry, looked up): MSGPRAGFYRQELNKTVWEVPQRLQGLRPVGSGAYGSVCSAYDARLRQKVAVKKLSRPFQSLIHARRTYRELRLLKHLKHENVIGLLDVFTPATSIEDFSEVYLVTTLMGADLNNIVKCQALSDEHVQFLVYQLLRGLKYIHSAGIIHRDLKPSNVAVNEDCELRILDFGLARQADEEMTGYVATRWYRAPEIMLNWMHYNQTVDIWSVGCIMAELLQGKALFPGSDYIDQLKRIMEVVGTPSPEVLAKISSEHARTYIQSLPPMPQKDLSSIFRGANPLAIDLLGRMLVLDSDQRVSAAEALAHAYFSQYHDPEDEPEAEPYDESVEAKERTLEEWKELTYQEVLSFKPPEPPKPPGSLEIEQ
Chain of UniProt P18508 (whole entry, looked up): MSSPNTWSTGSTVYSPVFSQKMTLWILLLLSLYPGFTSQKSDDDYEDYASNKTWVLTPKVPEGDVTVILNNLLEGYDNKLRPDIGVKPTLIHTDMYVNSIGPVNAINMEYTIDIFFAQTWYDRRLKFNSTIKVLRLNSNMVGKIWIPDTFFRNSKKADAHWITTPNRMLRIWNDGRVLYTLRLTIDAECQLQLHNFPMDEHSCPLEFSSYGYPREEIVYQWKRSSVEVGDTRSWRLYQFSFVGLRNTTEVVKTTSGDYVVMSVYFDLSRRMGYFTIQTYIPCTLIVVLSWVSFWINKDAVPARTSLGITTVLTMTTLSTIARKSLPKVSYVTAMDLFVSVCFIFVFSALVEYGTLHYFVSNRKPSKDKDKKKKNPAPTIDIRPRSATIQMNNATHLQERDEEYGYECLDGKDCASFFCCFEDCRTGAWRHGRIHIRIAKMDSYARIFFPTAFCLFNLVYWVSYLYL
Chain of UniProt O43318 (whole entry, looked up): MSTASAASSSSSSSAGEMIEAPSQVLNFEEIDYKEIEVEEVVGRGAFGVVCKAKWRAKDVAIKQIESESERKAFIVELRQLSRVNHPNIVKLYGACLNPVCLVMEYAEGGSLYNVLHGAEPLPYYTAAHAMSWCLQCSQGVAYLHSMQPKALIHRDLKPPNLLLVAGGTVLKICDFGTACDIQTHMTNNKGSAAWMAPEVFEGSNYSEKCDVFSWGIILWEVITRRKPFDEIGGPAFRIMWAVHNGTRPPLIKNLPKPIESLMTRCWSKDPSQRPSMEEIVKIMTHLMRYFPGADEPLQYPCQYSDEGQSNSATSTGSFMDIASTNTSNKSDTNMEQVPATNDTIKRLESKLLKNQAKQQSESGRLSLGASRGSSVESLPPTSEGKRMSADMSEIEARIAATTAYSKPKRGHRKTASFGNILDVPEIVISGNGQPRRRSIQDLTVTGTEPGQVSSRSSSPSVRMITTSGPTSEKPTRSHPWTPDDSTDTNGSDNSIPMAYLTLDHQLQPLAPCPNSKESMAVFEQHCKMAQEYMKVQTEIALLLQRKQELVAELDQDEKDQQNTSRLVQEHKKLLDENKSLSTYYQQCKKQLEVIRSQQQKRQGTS
Chain of UniProt P63138 (whole entry, looked up): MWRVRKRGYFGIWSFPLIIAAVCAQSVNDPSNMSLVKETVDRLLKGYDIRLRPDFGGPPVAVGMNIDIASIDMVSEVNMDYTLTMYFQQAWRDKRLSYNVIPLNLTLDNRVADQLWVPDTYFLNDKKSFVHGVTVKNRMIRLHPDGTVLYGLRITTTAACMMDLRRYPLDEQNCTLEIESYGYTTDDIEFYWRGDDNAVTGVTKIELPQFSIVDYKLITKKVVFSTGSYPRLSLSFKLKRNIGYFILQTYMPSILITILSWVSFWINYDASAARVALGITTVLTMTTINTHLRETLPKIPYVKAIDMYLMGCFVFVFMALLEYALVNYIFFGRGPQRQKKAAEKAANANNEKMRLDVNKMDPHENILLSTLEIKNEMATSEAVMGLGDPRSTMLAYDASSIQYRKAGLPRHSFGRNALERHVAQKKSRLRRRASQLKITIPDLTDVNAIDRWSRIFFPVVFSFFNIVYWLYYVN
Chain of UniProt O43570 (whole entry, looked up): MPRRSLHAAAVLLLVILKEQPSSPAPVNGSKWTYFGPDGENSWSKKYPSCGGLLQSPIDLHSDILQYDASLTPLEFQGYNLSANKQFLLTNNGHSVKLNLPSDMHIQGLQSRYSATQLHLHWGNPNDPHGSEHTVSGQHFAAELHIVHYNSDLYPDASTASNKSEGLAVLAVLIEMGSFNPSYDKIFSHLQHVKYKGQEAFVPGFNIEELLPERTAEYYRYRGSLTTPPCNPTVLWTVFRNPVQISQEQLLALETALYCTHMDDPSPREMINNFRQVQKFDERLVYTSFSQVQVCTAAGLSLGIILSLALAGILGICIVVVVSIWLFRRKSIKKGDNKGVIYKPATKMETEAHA
Chain of UniProt P69848 (whole entry, looked up): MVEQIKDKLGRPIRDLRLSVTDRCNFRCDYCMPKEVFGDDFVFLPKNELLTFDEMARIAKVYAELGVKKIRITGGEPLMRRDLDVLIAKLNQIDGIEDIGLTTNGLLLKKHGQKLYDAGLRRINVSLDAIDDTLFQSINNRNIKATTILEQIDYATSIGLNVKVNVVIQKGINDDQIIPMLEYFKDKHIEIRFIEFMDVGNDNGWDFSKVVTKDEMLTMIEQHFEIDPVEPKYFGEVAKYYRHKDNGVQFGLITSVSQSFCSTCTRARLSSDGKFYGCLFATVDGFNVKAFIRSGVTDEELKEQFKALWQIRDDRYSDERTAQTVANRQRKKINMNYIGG

O=C(c1ccc(Cl)cc1)N1CCN2C(=O)N(OC(=O)N3CCOc4ccccc43)C(=O)C2C1 (centres unmarked) gave a median ratio of 1.03 ((Lyso)-N-acylphosphatidylethanolamine lipase (ABHD4, Homo sapiens, UniProt Q8TB40); enzyme activity, inhibitor, MS-based ABPP; SW-620 in situ; 10 µM, 2 h, 37 °C; relative to: compound over DMSO, lower = stronger inhibition).
With Fc1ccc(Oc2ccnc3cc(Cl)cc(Cl)c23)cc1 the EC10 was 0.384 µM (PPARG (Homo sapiens, UniProt P37231); reporter gene, agonist, β-lactamase reporter; HEK293-H cells; 24 h, nominal concentration; relative to: 10% of rosiglitazone maximum effect).
For CN(C(=O)n1cnc(-c2ccc[n+]([O-])c2)c1)C1CCCCC1, the inhibition was 1% (BDKRB1 (Homo sapiens, UniProt P46663); radioligand binding; 10 µM, added: [3H]des-Arg10-kallidin).
For CC(=O)c1c(O)c(C)c(O)c(Cc2c(O)c3c(c(C(=O)/C=C/c4ccccc4)c2O)OC(C)(C)C=C3)c1O, potency read “decreased” (TGM2 (Homo sapiens, UniProt P21980); enzyme activity, inhibitor; added: Triton X-100 0.02%).
For Nc1ncc(-c2nc(N3CCOCC3)nc(N3CCOCC3)n2)c(C(F)F)n1, the remaining binding was 70% (Tyrosine-protein kinase ABL1, phosphorylated (ABL1, Homo sapiens, UniProt P00519, F317I); KINOMEscan; 10 µM).
With Cc1c(Cl)c(=O)oc2cc(OCCCC[Se]C#N)ccc12 the selectivity ratio was greater than 1400 (CA12 (Homo sapiens, UniProt O43570); stopped-flow CO2 hydration; relative to: Ki CA I over Ki CA XII).
For Nc1nc2c(ncn2[C@@H]2O[C@H](COP(=O)(O)OP(=O)(O)OP(=O)(O)O)[C@@H](O)[C@H]2O)c(=O)[nH]1, the Km was 3.1 ± 0.7 µM (GTP 3',8-cyclase (moaA, Staphylococcus aureus, UniProt P69848); substrate).
For C[C@H]1CN(c2n[nH]c3nc(N[C@H]4CC[C@H](NS(=O)(=O)CCC(F)(F)F)CC4)ncc23)CCO1, the remaining binding was 0.44 (MAPK11; Kinobeads competition; HEK293, K562, placenta lysate; 0.8 µM, unit not given; relative to: vehicle).
The selectivity ratio of CCN(C)C(=O)Oc1ccc(CCC(=O)N2CCc3ccccc3C2)cc1 is reported as 0.3 (Cholinesterase (BCHE, Equus caballus, UniProt P81908); Ellman; equine serum BuChE; relative to: AChE IC50 over BuChE IC50).
CN1CCN(c2cc(-c3ccncc3)c(-c3ccc4ccccc4c3)nn2)CC1 gave an activation of 3.3% (ADRA2C (Homo sapiens, UniProt P18825); agonist, FLIPR; 12.5 µM).
Under “log2 fold change”, COc1cc(N)c(Cl)cc1C(=O)NC1CN2CCC1CC2 (centres unmarked) is recorded as -0.2 (GPR37 (Homo sapiens, UniProt O15354); β-arrestin recruitment, TANGO luminescence; concentration not given; relative to: basal luminescence).
With CCCCCCCCCCC[C@@H](C[C@@H]1OC(=O)[C@H]1CCCCCC)OC(=O)[C@H](CC(C)C)NC=O the efficacy was -73.8 ± 6.76% (Cholinesterase (BCHE, Homo sapiens, UniProt P06276); concentration not given, Triton).
With Clc1ccc(-c2cc(Cl)ccc2Cl)cc1 the IC25 was 3.1 µM (Androgen receptor (AR, Homo sapiens, UniProt P10275); reporter gene, antagonist; 24 h, added: DHT 2 nM).
For Nc1ncnc2c1ncn2[C@@H]1O[C@H](COP(=O)(O)OP(=O)(O)O)[C@@H](O)[C@H]1O, the ΔS was 15.2 cal/mol/K (Cell cycle histidine kinase CckA, G318A; cytoplasmic region (Caulobacter vibrioides, UniProt Q9X688, G318A); binding, ITC; added: without c-di-GMP).
Under “binding free energy”, Cc1cccc(C)c1OCC(=O)N[C@@H](Cc1ccccc1)[C@H](O)C(=O)N1CSC(C)(C)[C@H]1C(=O)N[C@H]1c2ccccc2C[C@H]1O is recorded as -13.9 kcal/mol (Gag-Pol polyprotein, protease (gag-pol, Human immunodeficiency virus type 1 group M subtype B, UniProt P04585); GdnHCl denaturation, Trp fluorescence; HIV-1; 2.5 µM, pH 5.0).
Oc1noc2c1CCNC2 has a maximal response of 122% (GABA-A receptor; alpha-1/beta-2/gamma-2 (Rattus norvegicus, UniProt P18508+P62813+P63138); chloride current, agonist, whole-cell patch clamp; HEK293 expressing GABAA; 30 s; relative to: maximum).
O=C1CN(C(=O)CCn2ccnc2)CC(O)CN1CCc1ccccc1 (centres unmarked) has an apparent Vmax of 0.24 ± 0.02 µM/min (Cholinesterase (BCHE, Homo sapiens, UniProt P06276); inhibitor; 1.5 µM).
CC(=O)SCCNC(=O)CCNC(=O)[C@H](O)C(C)(C)COP(=O)(O)OP(=O)(O)OC[C@H]1O[C@@H](n2cnc3c(N)ncnc32)[C@H](O)[C@@H]1OP(=O)(O)O gave a Km of 11 µM (N-acetylaspartate synthetase (NAT8L, Homo sapiens, UniProt Q8N9F0); substrate, CPM fluorescence; 30 min).
With CCOC(=O)Nc1ccc(NCc2ccc(F)cc2)nc1N the IC50 was 2.51 µM (Plasmodium falciparum; HB3).
The reaction velocity of C=C(CN(C(=O)c1c(C(F)F)nn(C)c1F)C1CC1)c1ccc(Cl)cc1Cl is reported as 0.00687 µM/s and 0.00556 µM/s and 0.00571 µM/s (SDHD/SDHC/SDHB (Sus scrofa, UniProt A5GZW8+D0VWV4+Q007T0); enzyme activity, inhibitor, DCIP reduction; pig; 0.4 µM, added: DCIP 40 µM).
For Cc1ccc(CCn2c3c(c4cc(Cl)ccc42)CN(C)CC3)cn1, the efficacy was -95.2 ± 7.02% (Cholinesterase (BCHE, Homo sapiens, UniProt P06276); concentration not given, Triton).
The probe labelling of O=C(Nc1cccnn1)N1CCC(=Cc2cccc(Oc3ccc(C(F)(F)F)cn3)c2)CC1 is reported as -5 (Protein S100-A16 (Rattus norvegicus, UniProt A0ACM8QDC9); competitive ABPP with azido-FP probe; rat brain membrane fraction; 0.1 µM, unit not given; relative to: DMSO).
The remaining activity of CC(=O)N[C@@H](CCC(N)=O)C(=O)N[C@@H](Cc1ccccc1)C(=O)N[C@@H](CCCNC(=N)N)C(=O)CN1CCCCC1 is reported as 103% (TMPRSS2 (Homo sapiens, UniProt O15393); enzyme activity, inhibitor; 1 nM, 1% DMSO; relative to: vehicle).
For COc1cc2c3cc1Oc1cc(ccc1O)C[C@@H]1c4c(cc(OC)c(O)c4Oc4ccc(cc4)C[C@@H]3N(C)CC2)CC[N+]1(C)C, “free receptor reduction” read 50% (Chrnd/Chrna1/Chrne (Mus musculus, UniProt P02716+P04756+P20782); mouse diaphragm; 0.04 µM, AChE intact).
The inhibition of O=C(Nc1cnccc1Cl)N1CCN(Cc2ccc3c(c2)OC(F)(F)O3)CC1 is reported as -8% (STK17A (Homo sapiens, UniProt Q9UEE5); kinase activity, inhibitor; 10 µM, human).
The ΔTm of CN[C@@H]1C[C@H]2O[C@@](C)([C@@H]1OC)n1c3ccccc3c3c4c(c5c6ccccc6n2c5c31)C(=O)NC4 is reported as 1.5 °C (AKT1 (Homo sapiens, UniProt P31749); binder, NanoLuc thermal shift; permeabilized HeLa, Nluc fusion).
COc1ccc(N2C(=O)N(c3c(C)cccc3Cl)Cc3cnc(Nc4ccc(C5CCN(C)CC5)cc4OC)nc32)nc1 has an inhibition of 2% (MAP3K7 (Homo sapiens, UniProt O43318); kinase activity, inhibitor; 0.5 µM, kinase TAK1-TAB1).
Cc1[nH]c(C)c(S(=O)(=O)Nc2ccc(S(F)(F)(F)(F)F)cc2)c1C(=O)N(C)C has an Imax of 92 ± 1% (DRD3 (Homo sapiens, UniProt P35462); β-arrestin recruitment, agonist, PathHunter; relative to: dopamine).
CN1CCc2[nH]c3ccccc3c2CC1.O=C(O)/C=C/C(=O)O — result for “recovery time constant”: 8.6 ± 0.2 s (Chrna7 (Rattus norvegicus, UniProt Q05941); ion current, inhibitor, two-electrode voltage clamp; Xenopus laevis oocytes; 3 µM, rat receptor, added: acetylcholine 100 µM).
O=C(CCCN1CCC2(CC1)C(=O)NCN2c1ccccc1)c1ccc(F)cc1 gave an efficacy of -74.2 ± 2.13% (Cholinesterase (BCHE, Homo sapiens, UniProt P06276); concentration not given, Triton).
[2H]c1c([2H])c([C@]2([2H])CCCN2C(=O)C(C)(C)Oc2ccc3cn[nH]c3c2)c([2H])c([2H])c1C([2H])([2H])[2H] has a remaining binding of 74% (Tyrosine-protein kinase ABL1, phosphorylated (ABL1, Homo sapiens, UniProt P00519); KINOMEscan; 1 µM; relative to: DMSO control).
OC(c1cc(C(F)(F)F)nc2c(C(F)(F)F)cccc12)C1CCCCN1 (centres unmarked) has an IC50 of 0.01 µM (Plasmodium falciparum; cell growth; HB3).
With Nc1ccn([C@H]2C[C@H](O)[C@@H](COP(=O)(O)OP(=O)(O)OP(=O)(O)O)O2)c(=O)n1 the kcat was 0.134 ± 0.0255 s⁻¹ (Gag-Pol polyprotein, reverse transcriptase (gag-pol, Human immunodeficiency virus type 1 group M subtype B, UniProt P04585, K653T); nucleotide misincorporation, steady-state kinetics; K66T RT, added: matched template/primer, template T).
Oc1cc(Br)cc(Br)c1Oc1ccc(Br)cc1Br gave an apparent Vmax of 49.5 nmol/min/mg protein (SULT1B1 (Homo sapiens, UniProt O43704); sulfonation, substrate).
COc1cc(Nc2ncc(F)c(Nc3ccc4c(n3)NC(=O)C(C)(C)O4)n2)cc(OC)c1OC gave an inhibition of 0% (MAPK11; KINOMEscan; 10 µM, p38-beta).
C=CCNCC(=O)O gave a kinact/KI of 1.6 ± 0.2 M⁻¹ s⁻¹ (putA (Sinorhizobium meliloti, UniProt F7X6I3); covalent inactivator; 23 °C).
The kinact/KI of CC1(C)S[C@@H]2[C@H](/N=C/N3CCCCCC3)C(=O)N2[C@H]1C(=O)O is reported as 18 ± 0.5 M⁻¹ s⁻¹ (Penicillin-binding protein 1A (pbpA, Streptococcus pneumoniae, UniProt Q8DR59); inhibitor).
O=C(O)C(F)(F)C(F)(F)C(F)(F)C(F)(F)C(F)(F)C(F)(F)C(F)(F)F — result for “linear uptake duration”: 1 min (SLC10A1 (Homo sapiens, UniProt Q14973); substrate; HEK293 stably expressing; 10 µM).

For quick reference, copied from above:
[2H]c1c([2H])c([C@]2([2H])CCCN2C(=O)C(C)(C)Oc2ccc3cn[nH]c3c2)c([2H])c([2H])c1C([2H])([2H])[2H] has a remaining binding of 74% (Tyrosine-protein kinase ABL1, phosphorylated (ABL1, Homo sapiens, UniProt P00519); KINOMEscan; 1 µM; relative to: DMSO control).
OC(c1cc(C(F)(F)F)nc2c(C(F)(F)F)cccc12)C1CCCCN1 (centres unmarked) has an IC50 of 0.01 µM (Plasmodium falciparum; cell growth; HB3).
With Nc1ccn([C@H]2C[C@H](O)[C@@H](COP(=O)(O)OP(=O)(O)OP(=O)(O)O)O2)c(=O)n1 the kcat was 0.134 ± 0.0255 s⁻¹ (Gag-Pol polyprotein, reverse transcriptase (gag-pol, Human immunodeficiency virus type 1 group M subtype B, UniProt P04585, K653T); nucleotide misincorporation, steady-state kinetics; K66T RT, added: matched template/primer, template T).
Oc1cc(Br)cc(Br)c1Oc1ccc(Br)cc1Br gave an apparent Vmax of 49.5 nmol/min/mg protein (SULT1B1 (Homo sapiens, UniProt O43704); sulfonation, substrate).
